Measured values of several laboratories.
Every numbered part comes from another study and shows a few of its results, in no order. Substitutions count along the parent as printed.

Set 1 — method: DHFR PCA, deep sequencing; medium: yeast; added: (+)-ABA 0.11 µM; relative to: wild-type fitted maximum; direction: higher = stronger binding; quantity: relative binding score
Target: ABI1, truncated, D143A, DHFR fusion (Arabidopsis thaliana)
Notes: methotrexate growth selection, single substitutions
Starting sequence: PYL1, truncated, DHFR fusion (Arabidopsis thaliana); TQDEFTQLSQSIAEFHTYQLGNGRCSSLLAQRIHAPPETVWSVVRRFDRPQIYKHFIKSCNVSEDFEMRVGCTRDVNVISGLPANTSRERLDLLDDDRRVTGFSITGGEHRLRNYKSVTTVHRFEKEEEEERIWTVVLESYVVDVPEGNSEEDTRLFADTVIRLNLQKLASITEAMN; partner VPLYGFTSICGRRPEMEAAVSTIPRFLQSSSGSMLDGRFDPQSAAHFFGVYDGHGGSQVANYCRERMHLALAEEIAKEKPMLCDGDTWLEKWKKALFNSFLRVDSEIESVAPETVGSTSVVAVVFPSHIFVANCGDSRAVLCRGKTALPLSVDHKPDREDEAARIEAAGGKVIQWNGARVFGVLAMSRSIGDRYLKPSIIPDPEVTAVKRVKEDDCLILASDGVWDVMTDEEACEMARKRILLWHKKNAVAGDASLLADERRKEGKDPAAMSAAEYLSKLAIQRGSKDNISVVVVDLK
Substitution = L93W; result = 0.304%
Substitution = E151K; result = 41.5%
Substitution = I79Q; result = 9.47%
Substitution = F124G; result = 13.1%
Substitution = R163A; result = 22.9%
Substitution = Q19G; result = 10.6%
Substitution = T1P; result = 34.8%
Substitution = E14M; result = 10.4%
Substitution = S117V; result = -3.62%
Substitution = K126N; result = 56.7%
Substitution = L164V; result = 17.8%
Substitution = Y115E; result = -3.75%

Set 2 — method: RNA Bind-n-Seq; molecule type: RNA; medium: in vitro; concentration: 200 nM; notes: whole 134-nt RNA, ends assumed; added: 150 mM LiCl; relative to: input library; direction: higher = stronger binding; quantity: log2 enrichment; each molecule: 7-deaza-guanosine replaces G
Target: Fragile X messenger ribonucleoprotein 1, C-terminal low-complexity region (Fmr1, Mus musculus, UniProt P35922)
Sequence = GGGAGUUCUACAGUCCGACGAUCCUCAAGUCCUGUGCUACACAUCGUAUGUACCGAAUCGGGGUGGGUGGGGUGGGAAAGUAUUAUGUUACGCCGUUCGGAUCUGCACUUCCAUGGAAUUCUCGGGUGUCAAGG; result = -0.777
Sequence = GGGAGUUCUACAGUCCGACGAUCUGGCCCUAGUGGCAUGCGGGGAGGAAGAGGUGGCCUCAUGGAUCGUGGUGGUCCCGGUGGAAUGUUCAGAGGUGGCCGUGGUGGAGACAGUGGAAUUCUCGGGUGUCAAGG; result = 0.0404
Sequence = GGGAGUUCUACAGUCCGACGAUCCAAGUCCUGUGCUACACAUCGUAUGUACCGAAUCGGGCCCGGGGCCCGGGGCCCGGAAAGUAUUAUGUUACGCCGUUCGGAUCUGCACUUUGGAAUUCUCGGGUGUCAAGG; result = -2.42
Sequence = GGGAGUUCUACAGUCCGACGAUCCACAGACAACACGCACCCACACAGACACAGAGGGAAGGGGUUGGGAUGGGGACAGGGUGCACAGCAGGGCGGGGUAGGACCAAAGCCCCUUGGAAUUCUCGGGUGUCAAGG; result = -0.125
Sequence = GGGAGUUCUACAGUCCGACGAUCGUCCUGUGCUACACAUCGUAUGUACCGAAUCGGGGCCCCCGGGCCCCCGGCCCCCGGGAAAGUAUUAUGUUACGCCGUUCGGAUCUGCACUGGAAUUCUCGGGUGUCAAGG; result = -2.33
Sequence = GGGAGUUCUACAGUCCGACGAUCUCAAGUCCUGUGCUACACAUCGUAUGUACCGAAUCGGUUUUUGGAGGAAAAAGGAAAGUAUUAUGUUACGCCGUUCGGAUCUGCACUUCCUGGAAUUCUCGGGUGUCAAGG; result = -0.705
Sequence = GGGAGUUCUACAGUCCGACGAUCCCUCAAGUCCUGUGCUACACAUCGUAUGUACCGAAUCGGGGUGGGUGGGGUGGAAAGUAUUAUGUUACGCCGUUCGGAUCUGCACUUCCAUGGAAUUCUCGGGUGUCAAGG; result = -1.26
Sequence = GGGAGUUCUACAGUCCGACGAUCCCUGUGCUACACAUCGUAUGUACCGAAUCAAAUUUUUAAAUUUUUUUAAAUUUUUUUAAAAAAGUAUUAUGUUACGCCGUUCGGAUCUGCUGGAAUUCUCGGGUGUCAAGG; result = -2.49
Sequence = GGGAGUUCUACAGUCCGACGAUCCCUGUGCUACACAUCGUAUGUACCGAAUCGGCCCCCCCGGGCCCCCCCGGGCCCCCCCGGAAAGUAUUAUGUUACGCCGUUCGGAUCUGCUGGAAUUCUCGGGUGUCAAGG; result = 1.05
Sequence = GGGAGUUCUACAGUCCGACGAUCCUCAAGUCCUGUGCUACACAUCGUAUGUACCGAAUCGGGGAGGGGAGGGGAGGAAAGUAUUAUGUUACGCCGUUCGGAUCUGCACUUCCAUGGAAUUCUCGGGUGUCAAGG; result = -0.279
Sequence = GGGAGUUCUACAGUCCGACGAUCAGUCCUGUGCUACACAUCGUAUGUACCGAAUCGGGUUUUUUUGGGAAAAAGGGAGGGAAAGUAUUAUGUUACGCCGUUCGGAUCUGCACUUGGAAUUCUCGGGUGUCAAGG; result = -2.13

Set 3 — method: protein binding microarray; molecule type: double-stranded DNA, one strand shown; medium: in vitro; concentration: not given; relative to: not given; direction: higher = stronger binding; quantity: E-score
Target: Histone acetyltransferase KAT6A, winged helix 1, GST fusion (KAT6A, Homo sapiens, UniProt Q92794, residues 1-85)
Notes: 8-mer, flanks averaged, mean of 2 arrays, mostly near background
Target sequence (chain): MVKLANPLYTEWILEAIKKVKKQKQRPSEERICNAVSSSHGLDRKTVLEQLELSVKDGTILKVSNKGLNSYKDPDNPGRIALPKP
Sequence = CGCAGACA; result = 0.069
Sequence = GATGGGCA; result = -0.17
Sequence = CGTATGCC; result = 0.153
Sequence = ACGTAGAA; result = -0.117
Sequence = ATCAAAGC; result = -0.00995
Sequence = ATCCAGGG; result = -0.0571
Sequence = CTTATTAA; result = -0.0774
Sequence = ATGTCGCC; result = 0.147
Sequence = ATTTACCG; result = 0.207
Sequence = AAGGCTGG; result = -0.235
Sequence = AGCAGAAT; result = -0.152
Sequence = TAGGACCA; result = -0.18
Sequence = CCGGGATA; result = 0.178
Sequence = ACTTTACC; result = -0.106
Sequence = CGCGATTA; result = 0.0903
Sequence = AGGGCCAT; result = -0.0778

Further values, each from its own experiment
Substance = PhoQ, residues 284 288 289 292 302 303 SVTLVV; target or system = PhoP, residues 12 14 15 18 19 SMASL (Escherichia coli, UniProt P23836); test = Sort-seq, refers to: YFP reporter; test system = E. coli; conditions = PhoQ-PhoP variant library, added: 10 µM Mg2+; scale = relative to: high Mg2+ state, higher = stronger signaling; quantity = fold induction; result = 6.6
Substance = GSPAKKLFTSTGL; target or system = Saccharomyces cerevisiae; test = binding, competitive growth deep sequencing; test system = peptide, cyclin E1-Cln2 fusion strain; conditions = concentration not given, peptide library 1; scale = direction not given; quantity = growth enrichment score; result = 0.0361
